Experimental data gathered from unrelated publications.
Each numbered part is a random draw from the data of one study; scales do not carry over between parts.

Study 1 — technique: universal PBM; form: double-stranded DNA, one strand shown; matrix: in vitro; concentration: 600 nM; direction: higher = stronger binding
Target: Sal-like protein 4, full length isoform A (SALL4, Homo sapiens, UniProt Q9UJQ4, residues 1-1053)
Chain of UniProt Q9UJQ4 (whole entry, looked up): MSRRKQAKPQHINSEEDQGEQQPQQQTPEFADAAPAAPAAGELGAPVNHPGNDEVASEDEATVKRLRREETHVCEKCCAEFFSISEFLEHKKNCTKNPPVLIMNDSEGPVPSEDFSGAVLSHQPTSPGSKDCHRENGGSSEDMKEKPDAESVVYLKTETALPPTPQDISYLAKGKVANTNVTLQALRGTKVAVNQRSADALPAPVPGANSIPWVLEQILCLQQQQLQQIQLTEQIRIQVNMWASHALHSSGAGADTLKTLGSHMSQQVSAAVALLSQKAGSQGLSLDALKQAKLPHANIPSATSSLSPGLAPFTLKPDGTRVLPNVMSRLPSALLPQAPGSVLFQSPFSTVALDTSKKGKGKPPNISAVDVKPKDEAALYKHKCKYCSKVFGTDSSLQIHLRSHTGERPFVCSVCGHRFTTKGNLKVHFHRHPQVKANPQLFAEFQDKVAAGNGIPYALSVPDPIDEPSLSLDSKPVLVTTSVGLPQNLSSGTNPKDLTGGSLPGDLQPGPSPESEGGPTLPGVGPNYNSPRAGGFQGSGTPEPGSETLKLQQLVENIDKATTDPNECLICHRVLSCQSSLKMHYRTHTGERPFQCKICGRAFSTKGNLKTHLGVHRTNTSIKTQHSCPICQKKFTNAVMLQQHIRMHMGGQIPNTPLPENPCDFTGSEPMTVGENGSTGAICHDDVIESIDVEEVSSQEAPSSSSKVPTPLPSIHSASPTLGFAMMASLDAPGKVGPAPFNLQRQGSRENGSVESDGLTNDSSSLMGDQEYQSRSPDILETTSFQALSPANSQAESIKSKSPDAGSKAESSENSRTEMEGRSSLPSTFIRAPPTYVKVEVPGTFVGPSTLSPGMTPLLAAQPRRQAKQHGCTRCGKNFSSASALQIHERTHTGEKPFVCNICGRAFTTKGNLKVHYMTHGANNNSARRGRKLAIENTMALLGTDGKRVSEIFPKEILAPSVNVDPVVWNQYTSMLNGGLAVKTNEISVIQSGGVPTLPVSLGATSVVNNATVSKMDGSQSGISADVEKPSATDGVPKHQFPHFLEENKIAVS
Setting: 8-mer, flanks averaged, mean of replicates
`CGGTAACC` has an E-score of -0.286.
`ATGTGTTC` has an E-score of 0.0396.
For `CCCTCCCC`, the E-score was -0.162.
The E-score of `AGCTGCCT` is reported as -0.254.
With `AAGAGATT` the E-score was 0.114.
The E-score of `CCTGCTTA` is reported as -0.0946.
For `ATGATGAG`, the E-score was 0.148.
For `CCTTGCAG`, the E-score was -0.289.
With `CTAGAGTC` the E-score was -0.132.
With `CCCTCTAG` the E-score was -0.0703.
With `GACCCTCA` the E-score was -0.146.
`CTAAGCTA` has an E-score of 0.0657.
`ACAATCCG` has an E-score of 0.00281.
`CAGTTTCC` gave an E-score of -0.0795.
`ACCGCTCC` has an E-score of -0.229.
For `GCCTTAAA`, the E-score was -0.066.
`CTAGATTC` gave an E-score of -0.0451.
`CGTGAATA` has an E-score of 0.213.
For `AATTGCTG`, the E-score was 0.147.
For `GGGGTACA`, the E-score was -0.247.
With `CAGGAGGC` the E-score was -0.185.

Study 2 — technique: protein binding microarray; form: double-stranded DNA, one strand shown; matrix: in vitro; concentration: not given; reference: not given; direction: higher = stronger binding
Target: Histone acetyltransferase KAT6A, both winged helices, GST fusion (KAT6A, Homo sapiens, UniProt Q92794, residues 1-181)
Setting: 8-mer, flanks averaged, mean of 2 arrays, mostly near background
Residues (chain): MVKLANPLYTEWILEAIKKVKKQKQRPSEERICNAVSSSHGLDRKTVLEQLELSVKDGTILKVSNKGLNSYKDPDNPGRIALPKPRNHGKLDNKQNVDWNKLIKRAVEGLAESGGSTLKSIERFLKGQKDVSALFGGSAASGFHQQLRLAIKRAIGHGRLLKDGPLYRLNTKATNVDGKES
`GCTAGACA` has an E-score of 0.158.
For `GTACTTCA`, the E-score was 0.00302.
With `ACAGAACT` the E-score was -0.137.
With `TATTGACA` the E-score was 0.0322.
`GAACGTGA` has an E-score of 0.12.
The E-score of `AGCCAGAG` is reported as -0.16.
The E-score of `CGACTTCC` is reported as 0.125.
`CCTAACCC` gave an E-score of 0.011.
For `ATTGCGCG`, the E-score was 0.381.
`ACCTGATC` has an E-score of -0.226.
`AGCTCATG` gave an E-score of 0.0174.
The E-score of `AATCGCCA` is reported as 0.0312.
`AAACTGGC` has an E-score of -0.126.
The E-score of `ACGTATTA` is reported as 0.00177.
For `GAGCGGTA`, the E-score was 0.217.
For `GAGAATGA`, the E-score was -0.126.
`AGGAGCAT` has an E-score of -0.146.
The E-score of `AAGTCGCC` is reported as 0.0276.
`CCAGGCTA` has an E-score of -0.177.
`AGCAGGGC` gave an E-score of -0.0426.
With `CGCCTTCA` the E-score was 0.0942.
The E-score of `CAGGCTCC` is reported as 0.00596.
For `ACAATGAG`, the E-score was -0.219.
The E-score of `ACCGATCA` is reported as 0.134.
`TCGGCTAA` gave an E-score of 0.272.

Study 3 — technique: protein-binding microarray; form: double-stranded DNA, one strand shown; matrix: in vitro; concentration: 250 nM; setting: 60-bp whole probe; added: salmon DNA 0.4 mg/ml; reference: random background probes; direction: higher = stronger binding; all sequences stand within: GCCTAGCAC … GTCTTGATTCGCTTGACGCTGCTG
Target: Interferon regulatory factor 5, full length, phosphomimetic (IRF5, Homo sapiens, UniProt Q13568-2, residues 1-514, K96S/S451D/S453D/S456D/S462D)
With `TTAGGGTTCGGGACTGGGTTAGTGCTA` the log fluorescence was -0.285 z-score.
The log fluorescence of `TCATTCCTGAAATCTCTTACTGTGCTA` is reported as 0.914 z-score.
`TATTCTCTACTTGTGTCTAGGTGCTAG` has a log fluorescence of 0.697 z-score.
`GACGGGATCGACTTTCGGGACGTGCTA` gave a log fluorescence of 5.26 z-score.
`CAAGTTACCCACCTCAGGTAGTGCTAG` gave a log fluorescence of 0.0147 z-score.
The log fluorescence of `TTAAGACTGGGTTTCGGTTAGTGCTAG` is reported as 8.07 z-score.
For `GAAGGTCTCCTTTTCCTGACGTGCTAG`, the log fluorescence was -0.0648 z-score.
The log fluorescence of `GACGATTTCGGGTATCGAGACGTGCTA` is reported as 4.84 z-score.
For `GACGGTTTCGGGTAACGGGACGTGCTA`, the log fluorescence was 8 z-score.
With `GACGGTATCGGACTGGGGTCGTGCTAG` the log fluorescence was 1.18 z-score.
The log fluorescence of `GACGGTCTTGGTTTCGGGACGTGCTAG` is reported as 3.38 z-score.
The log fluorescence of `TTAGGACTGGGGCATCGGTTAGTGCTA` is reported as -0.0258 z-score.
`GAGGATATCAGTCTCGAGACGTGCTAG` has a log fluorescence of 0.496 z-score.
With `GAGGATCTCAGACTGGAGACGTGCTAG` the log fluorescence was -0.67 z-score.
For `TTAGGCTTCCTTATCCTTTAGTGCTAG`, the log fluorescence was -0.0741 z-score.
`GACGATCTGAGTCTCGAGACGTGCTAG` gave a log fluorescence of -0.263 z-score.
`TTAGGTTTTGACACTGGGTTAGTGCTA` has a log fluorescence of 0.138 z-score.
`GACGGACTGCTACTGCTAACGTGCTAG` gave a log fluorescence of -0.744 z-score.
With `TCTCTGCTACCCTCTGAAAGTGTGCTA` the log fluorescence was 0.701 z-score.
The log fluorescence of `TGAGGTATCCTTCTCCTTTAGTGCTAG` is reported as 0.218 z-score.
With `CTAGGTTCCCTTTTCCTTTAGTGCTAG` the log fluorescence was 0.226 z-score.
The log fluorescence of `GACGAACTGCTTATCCTGACGTGCTAG` is reported as -0.326 z-score.
With `TCTATTTTCTGAATGTCTTCGTGCTAG` the log fluorescence was 1.85 z-score.

Study 4 — technique: RNA Bind-n-Seq; form: RNA; matrix: in vitro; concentration: not given; setting: RNA with constant flanks, ends assumed; reference: input RNA pool; direction: higher = stronger binding
Target: RING finger protein unkempt homolog, zinc fingers 1-6, GST-SBP tag (UNK, Homo sapiens, UniProt Q9C0B0, residues 30-357)
Target sequence (chain): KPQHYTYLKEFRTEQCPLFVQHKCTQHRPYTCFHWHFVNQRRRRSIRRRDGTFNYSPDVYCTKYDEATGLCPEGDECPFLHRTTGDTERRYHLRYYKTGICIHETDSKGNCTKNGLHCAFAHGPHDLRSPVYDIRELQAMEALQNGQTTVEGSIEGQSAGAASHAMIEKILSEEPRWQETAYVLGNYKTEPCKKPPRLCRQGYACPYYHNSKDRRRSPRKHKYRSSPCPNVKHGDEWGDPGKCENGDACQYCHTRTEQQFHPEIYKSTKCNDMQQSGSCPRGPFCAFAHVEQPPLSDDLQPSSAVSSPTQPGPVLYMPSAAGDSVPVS
For `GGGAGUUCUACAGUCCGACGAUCUUUCUUCCCCCUACCUCUGUGGCUGGUGCCACUCUGUACUCAGUGGCAAUGUAUGGUGGAUCCGUUCUUUUCAGCAUGUUCCUUCUGUAUGAUACUCAGAAAGUAAUCAAACGUGCAGAACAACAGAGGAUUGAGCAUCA`, the bound/input enrichment was 0.396 ratio.
`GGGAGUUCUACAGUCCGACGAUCAGAUGCAGAGCCAGGCCCCCUGGAAGAGCUUGCAGCAACCCCUCCUUCCUUCAGUUUCAACCCGACUUCUAUCAAGUCUACUUUCUGGCCCUGGCAGCGGACUGGCUCCAAGCUCCCUACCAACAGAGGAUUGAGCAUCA` gave a bound/input enrichment of 0.228 ratio.
`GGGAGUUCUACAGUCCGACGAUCUUGUGGGGAUGAGGGUGGGAUGGGAAAGGGAUGUAUGGAUGUUAUUGGCAUUUUUAAGUGUUCCGAGUUUUUUGGGGUUUGGGGUGGUUUUUUUUCCUUGUUUUCCUUUUUUCCUUUUAACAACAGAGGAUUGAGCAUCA` gave a bound/input enrichment of 1.4 ratio.
For `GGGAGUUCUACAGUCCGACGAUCAGACUGGAGAGAAUAAAGAGCAGUCGCAAAUGAAGCUGCCCACCCUCGGCACUCUGCAGCUUCCGUUACUGAUCUAGAAGCCCUGUAGUGUGAAGCGGCCGCUGCAGGCCAUUGUACACACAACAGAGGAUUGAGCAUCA`, the bound/input enrichment was 0.286 ratio.
`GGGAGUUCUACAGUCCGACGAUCCCAUCACAAAGAACCAAUGGCUCGUAACACCCAGCAGGGAAUAUGCUACCAAGACAAGAAUCCGGACUCACCGUGGGAAAACUGGACAAGAACUGAAAGAGGCAGCCUUGGAACCAUCAACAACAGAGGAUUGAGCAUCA` gave a bound/input enrichment of 0.179 ratio.
With `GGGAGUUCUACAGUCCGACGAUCUUAUACCAAGUUGAAUAUGCCAUGGAAGCUAUUGGACAUGCAGGCACCUGUUUGGGAAUUUCCGCAAAUGAUGGUGUUUUGCUUGCAGCAGAGAGACGCAACAUCCACAAGCUUCUUGAUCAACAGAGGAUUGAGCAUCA` the bound/input enrichment was 0.112 ratio.
`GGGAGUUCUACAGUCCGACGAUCAUUAUUCAGGUUGAUAAAGCCUAUGACUACCUCGUUCAGAAUACAUCAUUUGCUAAUAAAUCCGGUUUUACUGUUACUGUUGGAAAUAACCGUGGCAUCUACCUCCGAGAUCCUGUUCAGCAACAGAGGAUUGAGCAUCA` has a bound/input enrichment of 0.0897 ratio.
With `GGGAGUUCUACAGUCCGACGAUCGCUCACAGCAUCCCAGUAACUGAUGGCAUGUUUGUCUUUAUGUAAACUAUAUUGAAAUUUUCCGGGGCUAUUUUCCAUUAUGUCUGAACCUACUUUUGAUCUGAAAGCUUAACUUUAUAACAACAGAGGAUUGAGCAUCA` the bound/input enrichment was 0.733 ratio.
`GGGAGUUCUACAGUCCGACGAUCACAGUUUUCAAAAGUUCUUAAAGGCAAGAGUGAAUUUCUGUGGAUUUUACUGGUCCCAGCUUUCCGGUUCUUUAAGACACUAACAGGACUACAUAGAGGCUUUUUCAGCAUUACUGUGUCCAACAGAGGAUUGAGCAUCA` has a bound/input enrichment of 0.196 ratio.
`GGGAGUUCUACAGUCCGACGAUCAAGAAGAGAAGGAAGAUGAAAUCUCAUUAGAAGAUCUAAUUGAAAGAGAGCGUUCUGCCCCCGGUCCAAAUGUUACCAAAAUCACUCUAGAGUCUUUUCUCGCGUGGAAGAAGAGGAAAACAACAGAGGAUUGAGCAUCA` has a bound/input enrichment of 0.994 ratio.
The bound/input enrichment of `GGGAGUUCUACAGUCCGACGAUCGACAGUGAAGAAGAGAUUAGAGAAGCAUUCCGUGUGUUUGAUAAGGAUGGCAAUGGCUAUAUCCGUGCAGCAGAGCUUCGCCAUGUGAUGACAAACCUUGGCGAGAAGUUAACAGAUGAACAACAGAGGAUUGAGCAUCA` is reported as 0.332 ratio.

A few entries again (study 2):
For `GTACTTCA`, the E-score was 0.00302.
With `ACAGAACT` the E-score was -0.137.
With `TATTGACA` the E-score was 0.0322.
`GAACGTGA` has an E-score of 0.12.
The E-score of `AGCCAGAG` is reported as -0.16.
The E-score of `CGACTTCC` is reported as 0.125.
`CCTAACCC` gave an E-score of 0.011.
